Assay results of several laboratories.
Compare with care: the assays were run in different laboratories. ± marks the error that the study gave.
Organism: Acinetobacter baumannii

| Molecule | assay | system | setting | MIC |
| --- | --- | --- | --- | --- |
| CCCCCCCC(=O)N[C@@H](CCN)C(=O)N[C@@H](CCN)C(=O)N[C@@H](CCN)C(=O)N[C@H](Cc1ccccc1)C(=O)N[C@@H](CC(C)C)C(=O)N[C@@H](CCN)C(=O)N[C@@H](C(=O)N[C@@H](CC(C)C)C(=O)N[C@@H](CCN)C(N)=O)C(C)C | checkerboard, item: rifampicin | ATCC 19606 | sensitization to antibiotics, added: compound at 2 µg/mL | 0.0312 to 0.0625 µg/mL |
| CC1(C)S[C@@H]2[C@H](NC(=O)[C@H](N)c3ccccc3)C(=O)N2[C@H]1C(=O)O | microbial growth, broth dilution | ATCC19606 | – | 100 µg/mL |
| O=C(O)c1cn(C2CC2)c2cc(N3CCNCC3)c(F)cc2c1=O | microbial growth, broth dilution | – | – | 0.47 µg/mL |
| CC1(C)S[C@@H]2[C@H](NC(=O)[C@H](N)c3ccccc3)C(=O)N2[C@H]1C(=O)O | – | – | – | > 367 µM |
| CC(C)(S)C(NC[C@H](NC[C@H](N)C(=O)O)C(=O)O)C(=O)O (stereo in doubt) | broth microdilution | ATCC 17978 expressing NDM-1 | – | 16 µg/mL |
| CC(C)(C)Oc1ccc(CC2NC(=O)C(C(=O)NC(C(=O)NC3C(=O)N4C3SC(C)(C)C4C(=O)O)c3ccccc3)=C2O)cc1 (centres unmarked) | microbial growth, broth dilution | ATCC19606 | – | ≥ 200 µg/mL |
| CCCCCCC(=O)N[C@@H](CCN)C(=O)N[C@H](C(=O)N[C@@H](CCN)C(=O)N[C@H](Cc1ccccc1)C(=O)N[C@@H](CC(C)C)C(=O)N[C@@H](CCN)C(=O)N[C@@H](C(=O)N[C@@H](CC(C)C)C(=O)N[C@@H](CO)C(N)=O)C(C)C)C(C)C | checkerboard, item: rifampicin | ATCC 19606 | sensitization to antibiotics, added: compound at 4 µg/mL | 0.0313 to 0.0625 µg/mL |
| CC(C)(C)OCC1NC(=O)C(C(=O)NC(C(=O)NC2C(=O)N3C2SC(C)(C)C3C(=O)O)c2ccccc2)=C1O (centres unmarked) | microbial growth, broth dilution | ATCC19606 | – | 100 µg/mL |
| CCOC(=O)c1c(N)csc1-c1cn(-c2ccccc2)nc1-c1ccc(C)cc1 | broth microdilution | clinical urinary isolate | compound gamma-irradiated 5 kGy | 0.24 ± 0.1 µg/mL |
| gentamicin | – | clinical isolate | 18 h, pH 7 | 0.5 µg/mL |
| CCCCCCCCCC(=O)N[C@@H](CCN)C(=O)N[C@H](C(=O)N[C@H](C(=O)N[C@H](CC(C)C)C(=O)N[C@@H](CC(C)C)C(=O)N[C@@H](CCN)C(=O)N[C@@H](C(=O)N[C@@H](CC(C)C)C(=O)N[C@@H](CO)C(N)=O)C(C)C)[C@@H](C)O)[C@@H](C)CC | checkerboard, item: rifampicin | ATCC 19606 | sensitization to antibiotics, added: compound at 2 µg/mL | > 0.125 µg/mL |

A few entries again:
| Molecule | assay | system | setting | MIC |
| --- | --- | --- | --- | --- |
| CCCCCCCCCC(=O)N[C@@H](CCN)C(=O)N[C@H](C(=O)N[C@H](C(=O)N[C@H](CC(C)C)C(=O)N[C@@H](CC(C)C)C(=O)N[C@@H](CCN)C(=O)N[C@@H](C(=O)N[C@@H](CC(C)C)C(=O)N[C@@H](CO)C(N)=O)C(C)C)[C@@H](C)O)[C@@H](C)CC | checkerboard, item: rifampicin | ATCC 19606 | sensitization to antibiotics, added: compound at 2 µg/mL | > 0.125 µg/mL |
